Published values collected from several papers.
Protocols differ between the studies behind these lines. Values joined by “and” are separate records of one study, mostly repeats; a detail may differ. Numbers after ± are the reported error.
Astl: Astacin-like metalloendopeptidase (Astl, Mus musculus, UniProt Q6HA09)
Sequence of UniProt Q6HA09 (whole entry, looked up): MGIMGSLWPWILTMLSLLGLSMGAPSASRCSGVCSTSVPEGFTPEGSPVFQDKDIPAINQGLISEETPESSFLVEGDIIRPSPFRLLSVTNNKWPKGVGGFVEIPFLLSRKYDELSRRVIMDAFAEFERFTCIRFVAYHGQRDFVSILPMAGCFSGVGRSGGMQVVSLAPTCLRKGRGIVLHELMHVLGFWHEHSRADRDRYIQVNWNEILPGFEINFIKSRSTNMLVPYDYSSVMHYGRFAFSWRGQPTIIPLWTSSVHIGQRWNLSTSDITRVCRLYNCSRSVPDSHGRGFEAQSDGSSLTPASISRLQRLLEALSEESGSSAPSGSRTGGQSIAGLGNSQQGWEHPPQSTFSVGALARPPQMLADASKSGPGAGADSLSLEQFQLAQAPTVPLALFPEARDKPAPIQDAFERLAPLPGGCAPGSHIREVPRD
ATM: Serine-protein kinase ATM (ATM, Homo sapiens, UniProt Q13315)
Sequence of UniProt Q13315 (whole entry, looked up): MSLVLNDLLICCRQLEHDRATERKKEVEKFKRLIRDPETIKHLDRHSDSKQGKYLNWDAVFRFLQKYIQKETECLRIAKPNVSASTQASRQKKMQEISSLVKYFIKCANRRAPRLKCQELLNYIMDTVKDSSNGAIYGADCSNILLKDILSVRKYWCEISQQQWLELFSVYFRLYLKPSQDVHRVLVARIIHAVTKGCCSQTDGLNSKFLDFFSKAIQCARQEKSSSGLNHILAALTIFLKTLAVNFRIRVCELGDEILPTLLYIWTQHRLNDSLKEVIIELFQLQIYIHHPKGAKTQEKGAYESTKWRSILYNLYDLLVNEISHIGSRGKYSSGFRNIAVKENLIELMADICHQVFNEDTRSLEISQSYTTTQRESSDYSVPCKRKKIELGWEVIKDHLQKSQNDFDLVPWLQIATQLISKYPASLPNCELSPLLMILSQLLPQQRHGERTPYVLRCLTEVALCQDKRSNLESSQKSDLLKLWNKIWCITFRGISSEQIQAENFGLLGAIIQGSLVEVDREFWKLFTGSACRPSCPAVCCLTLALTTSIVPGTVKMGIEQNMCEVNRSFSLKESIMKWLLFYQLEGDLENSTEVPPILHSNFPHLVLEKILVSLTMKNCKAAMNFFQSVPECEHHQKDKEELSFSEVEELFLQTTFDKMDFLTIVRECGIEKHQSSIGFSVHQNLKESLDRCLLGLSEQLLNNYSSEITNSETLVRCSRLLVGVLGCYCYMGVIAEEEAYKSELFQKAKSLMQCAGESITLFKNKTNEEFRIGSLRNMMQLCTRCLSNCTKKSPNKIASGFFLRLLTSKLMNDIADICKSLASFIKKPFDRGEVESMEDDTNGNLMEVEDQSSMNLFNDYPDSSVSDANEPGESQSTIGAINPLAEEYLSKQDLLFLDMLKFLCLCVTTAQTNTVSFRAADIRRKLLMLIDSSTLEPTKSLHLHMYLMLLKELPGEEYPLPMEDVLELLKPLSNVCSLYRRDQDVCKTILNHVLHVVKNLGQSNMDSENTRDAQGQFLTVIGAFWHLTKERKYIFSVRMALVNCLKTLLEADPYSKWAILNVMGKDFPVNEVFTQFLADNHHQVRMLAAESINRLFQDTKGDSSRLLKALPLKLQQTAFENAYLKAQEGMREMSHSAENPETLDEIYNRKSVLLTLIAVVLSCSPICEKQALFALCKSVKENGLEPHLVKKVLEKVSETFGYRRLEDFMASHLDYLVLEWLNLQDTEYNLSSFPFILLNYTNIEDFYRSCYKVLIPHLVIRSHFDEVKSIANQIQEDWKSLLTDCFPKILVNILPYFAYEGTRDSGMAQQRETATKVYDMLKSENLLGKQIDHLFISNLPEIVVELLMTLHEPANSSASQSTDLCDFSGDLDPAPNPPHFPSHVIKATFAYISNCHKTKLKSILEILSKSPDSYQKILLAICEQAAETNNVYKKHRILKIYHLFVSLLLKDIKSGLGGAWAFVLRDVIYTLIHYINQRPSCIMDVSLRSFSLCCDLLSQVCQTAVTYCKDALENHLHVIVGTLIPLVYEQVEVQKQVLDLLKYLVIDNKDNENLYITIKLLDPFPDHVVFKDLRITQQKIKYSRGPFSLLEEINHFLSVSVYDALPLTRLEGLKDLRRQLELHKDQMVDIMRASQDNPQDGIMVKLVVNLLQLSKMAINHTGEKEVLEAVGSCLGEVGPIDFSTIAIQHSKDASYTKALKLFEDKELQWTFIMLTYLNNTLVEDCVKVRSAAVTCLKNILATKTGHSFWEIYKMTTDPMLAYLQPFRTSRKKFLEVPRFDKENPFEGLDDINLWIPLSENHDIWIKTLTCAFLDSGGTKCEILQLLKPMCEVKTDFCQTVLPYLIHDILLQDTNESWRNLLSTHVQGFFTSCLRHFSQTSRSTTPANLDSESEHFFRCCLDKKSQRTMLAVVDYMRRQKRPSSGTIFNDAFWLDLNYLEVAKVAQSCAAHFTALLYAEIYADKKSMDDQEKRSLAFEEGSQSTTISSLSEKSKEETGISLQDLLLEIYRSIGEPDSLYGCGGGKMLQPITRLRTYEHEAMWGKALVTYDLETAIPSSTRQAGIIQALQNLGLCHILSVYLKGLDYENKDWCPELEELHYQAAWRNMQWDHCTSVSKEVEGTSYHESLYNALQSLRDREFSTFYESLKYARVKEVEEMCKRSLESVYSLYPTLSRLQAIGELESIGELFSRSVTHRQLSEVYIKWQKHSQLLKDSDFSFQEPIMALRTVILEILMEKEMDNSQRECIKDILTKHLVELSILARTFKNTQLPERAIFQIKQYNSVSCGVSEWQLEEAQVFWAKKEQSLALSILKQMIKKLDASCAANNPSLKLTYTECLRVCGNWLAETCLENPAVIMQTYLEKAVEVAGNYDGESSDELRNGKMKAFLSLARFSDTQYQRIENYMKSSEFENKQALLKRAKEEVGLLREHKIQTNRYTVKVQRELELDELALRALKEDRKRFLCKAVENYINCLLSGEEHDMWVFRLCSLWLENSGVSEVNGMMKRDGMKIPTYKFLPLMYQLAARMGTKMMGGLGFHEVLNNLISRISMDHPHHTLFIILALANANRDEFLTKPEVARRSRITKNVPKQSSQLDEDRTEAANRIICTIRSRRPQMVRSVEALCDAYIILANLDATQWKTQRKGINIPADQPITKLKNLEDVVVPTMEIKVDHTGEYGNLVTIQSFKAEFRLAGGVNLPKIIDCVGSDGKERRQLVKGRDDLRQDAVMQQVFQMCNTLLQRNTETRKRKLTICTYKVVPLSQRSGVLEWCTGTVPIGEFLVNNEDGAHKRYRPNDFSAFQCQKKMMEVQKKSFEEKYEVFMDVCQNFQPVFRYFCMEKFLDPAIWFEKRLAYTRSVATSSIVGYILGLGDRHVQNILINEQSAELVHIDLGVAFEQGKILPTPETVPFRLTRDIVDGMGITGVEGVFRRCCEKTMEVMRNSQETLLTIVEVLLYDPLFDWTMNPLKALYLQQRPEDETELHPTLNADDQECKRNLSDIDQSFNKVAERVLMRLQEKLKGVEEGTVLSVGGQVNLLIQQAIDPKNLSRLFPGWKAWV
rhodesain: Rhodesain (rhodesain, Trypanosoma brucei rhodesiense, UniProt Q95PM0)
Sequence of UniProt Q16539 (whole entry, looked up): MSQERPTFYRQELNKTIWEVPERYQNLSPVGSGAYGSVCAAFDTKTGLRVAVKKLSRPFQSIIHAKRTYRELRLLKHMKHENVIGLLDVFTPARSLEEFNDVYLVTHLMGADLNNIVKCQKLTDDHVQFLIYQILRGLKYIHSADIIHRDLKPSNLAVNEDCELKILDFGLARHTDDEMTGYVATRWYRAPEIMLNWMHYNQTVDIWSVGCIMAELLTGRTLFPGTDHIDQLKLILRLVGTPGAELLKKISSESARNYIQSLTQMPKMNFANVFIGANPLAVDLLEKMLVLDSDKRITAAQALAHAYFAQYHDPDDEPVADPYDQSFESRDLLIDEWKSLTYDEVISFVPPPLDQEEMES
Sequence of UniProt P45983 (whole entry, looked up): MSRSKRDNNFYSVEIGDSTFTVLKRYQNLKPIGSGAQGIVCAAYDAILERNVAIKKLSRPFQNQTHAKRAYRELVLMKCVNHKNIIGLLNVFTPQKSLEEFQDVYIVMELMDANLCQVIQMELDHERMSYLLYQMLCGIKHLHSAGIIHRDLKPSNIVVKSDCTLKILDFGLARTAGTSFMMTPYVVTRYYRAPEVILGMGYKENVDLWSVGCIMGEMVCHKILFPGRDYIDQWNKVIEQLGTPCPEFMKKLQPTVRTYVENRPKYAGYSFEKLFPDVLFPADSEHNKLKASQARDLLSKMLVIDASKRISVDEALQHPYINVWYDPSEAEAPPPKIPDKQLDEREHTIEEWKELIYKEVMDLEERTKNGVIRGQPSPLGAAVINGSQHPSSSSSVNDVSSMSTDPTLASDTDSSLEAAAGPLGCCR
Sequence of UniProt Q9HB29 (whole entry, looked up): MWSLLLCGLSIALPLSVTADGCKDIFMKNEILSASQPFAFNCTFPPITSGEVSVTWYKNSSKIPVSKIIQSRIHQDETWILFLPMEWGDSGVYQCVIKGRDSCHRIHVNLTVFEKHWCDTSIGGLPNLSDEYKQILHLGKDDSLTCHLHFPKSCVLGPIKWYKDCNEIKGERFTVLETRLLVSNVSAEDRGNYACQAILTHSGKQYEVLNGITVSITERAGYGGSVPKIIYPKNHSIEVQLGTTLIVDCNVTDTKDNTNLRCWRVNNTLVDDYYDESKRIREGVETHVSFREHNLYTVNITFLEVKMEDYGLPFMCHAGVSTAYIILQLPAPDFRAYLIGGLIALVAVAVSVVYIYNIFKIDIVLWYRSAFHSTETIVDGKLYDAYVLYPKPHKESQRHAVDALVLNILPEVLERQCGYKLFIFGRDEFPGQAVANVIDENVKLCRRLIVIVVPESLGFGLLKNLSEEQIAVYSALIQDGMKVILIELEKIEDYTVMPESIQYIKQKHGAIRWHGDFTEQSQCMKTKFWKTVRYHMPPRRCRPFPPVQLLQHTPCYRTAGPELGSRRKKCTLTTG

With `COc1c(Cl)ccc(CN(CCC(=O)NO)Cc2ccc(Cl)c(OC)c2F)c1F` the remaining activity was 10 ± 4% (Astl; enzyme activity, inhibitor, fluorogenic; 5 µM).
`COc1ccc(NC(=O)c2c(Nc3ccccc3)sc(C(=O)N/N=C/c3ccc(OC)c(OC)c3)c2NC(C)=O)cc1` gave a remaining activity of 81.3% (KDR (Homo sapiens, UniProt P35968); enzyme activity, inhibitor; 0.1 µM).
`CCC1(CC)C(=O)N(c2cccc(CN3CCN(Cc4cccc5ccccc45)CC3)c2)C1=O` has a remaining activity of < 5% (Dipeptidyl peptidase 8 (Homo sapiens, UniProt Q6V1X1); enzyme activity, inhibitor; 5 µM).
The remaining binding of `Nc1ncc(-c2cc(-c3cnn(CC(F)(F)F)c3)ncc2F)nc1C(=O)NC1CNCC(F)C1` (stereo not shown) is reported as 51% (CSNK1A1L; KINOMEscan; 1 µM; relative to: DMSO control).
With `O=C(CCN(Cc1cccc(C(=O)O)c1)Cc1cccc(C(=O)O)c1)NO` the remaining activity was 26 ± 3% (Astl; enzyme activity, inhibitor, fluorogenic; 5 µM).
`COC(=O)[C@@]1(C)C=C(C(=O)Nc2cccc(C(=O)Nc3ccc(Nc4nccc(-c5cccnc5)n4)c(C)c3)c2)C(=O)CC1` gave a remaining activity of 0.145 and 0.11 and 0.12 (MAPK14 (Homo sapiens, UniProt Q16539); enzyme activity, inhibitor; 400 µM, unit not given; relative to: vehicle).
`O=c1c(-c2ccc(Cl)c(CN3CCOCC3)c2)coc2cc(O)ccc12` has a remaining activity of 83% (ATM; enzyme activity, inhibitor; 1 µM).
`COC(=O)[C@@]1(C(C)C)C=C(C(=O)Nc2cccc(C(=O)Nc3ccc(Nc4nccc(-c5cccnc5)n4)c(C)c3)c2)C(=O)CC1` has a remaining activity of 1.01 (MAPK8 (Homo sapiens, UniProt P45983); kinase activity, inhibitor; 0.002258 µM, unit not given, together with: 10 mM glutathione; relative to: no inhibitor).
The IC50 of `CNS(=O)(=O)Nc1nccc(Cc2c(C)c3ccc(Oc4ncccc4F)cc3oc2=O)c1F` is reported as 0.0412 µM (LS-1034; cell viability; 7 days).
`CN(Cc1cc(C2CC2)on1)C(=O)c1cccc(-c2ccc3c(c2)CCO3)c1` has a remaining activity of 100% (acetoacetyl-CoA synthetase (Cryptococcus neoformans); enzyme activity, inhibitor; 62.5 µM).
With `COC(=O)CN1CCCc2cc3cc(C(=O)NC(Cc4ccc(C)cc4)C(=O)NCC=CS(=O)(=O)c4ccccc4)c(=O)oc3cc21` (stereo not shown) the remaining activity was 12% (rhodesain; enzyme activity, inhibitor, fluorescence; 5 µM).
The remaining activity of `C[C@](C(=O)NC1CCOCC1)(c1cncnc1)N(C(=O)[C@H](F)Cl)c1ccc(OC(F)(F)Cl)cc1` is reported as 106% (MMP8 (Homo sapiens, UniProt P22894); enzyme activity, inhibitor; 10 µM).
`COC1CN([C@H]2CC[C@H]([C@@]3(C)Oc4c(Cl)cc(C(=O)NCc5c(SC)cc(C)[nH]c5=O)c(C)c4O3)CC2)C1` — result for “log2 fold change”: 0.515 (RNA-seq, item: PLVAP mouse homolog; mouse, HT-1376 xenograft, whole blood; dose not given; relative to: vehicle).
For `CC(C)=CCc1cc(C(=O)/C=C/c2ccc(O)cc2)c(O)cc1O`, “substrate inhibition constant Ki” read 66.8 ± 10.7 µM (phase I metabolism; dog liver microsomes).
The Hill slope of `CN(C)C/C=C/C(=O)Nc1ccc2nc(NCCCCCN(C)C)nc(NCCCCCCN(C)C)c2c1` is reported as -2 (SETD2 (Homo sapiens, UniProt Q9BYW2); methyltransferase activity, radiometric).
`CC(C)[C@@H]1NC(=O)[C@H](Cc2ccccc2)NC(=O)CSC[C@@H](C(N)=O)NC(=O)[C@H](CCC(=O)O)NC(=O)[C@H](CO)NC(=O)[C@H](Cc2c[nH]c3cccc(Cl)c23)NC(=O)[C@H](C2CCCCC2)NC(=O)[C@H](C(C)C)NC(=O)[C@H](Cc2ccc(O)cc2)NC(=O)[C@H](CC(=O)O)NC(=O)[C@H](Cc2c[nH]c3ccccc23)NC(=O)[C@H](Cc2ccc(N)nc2)NC(=O)[C@H](Cc2c[nH]c3ccc(Cl)cc23)NC(=O)[C@H](CCC(=O)O)NC1=O` has a remaining activity of 4.2% (Interleukin-1 receptor-like 2 (IL1RL2, Homo sapiens, UniProt Q9HB29); reporter gene (SEAP), inhibitor, HEK-Blue IL-36R reporter; HEK-Blue IL-36R cells; 100 µM, 6 h, together with: IL-36β 0.3 ng/mL).
`Cc1ncsc1-c1ccc(C(C)NC(=O)C2CC(O)CN2C(=O)C(NC(=O)CCCCCCCCCCN2CCCC(Nc3ncc(Cl)c(Nc4ccccc4S(=O)(=O)C(C)C)n3)C2)C(C)(C)C)cc1` (stereo not shown): “log2 fold change” -1.29 (22Rv1; RNA-seq, item: SPRY1 mRNA; concentration not given; relative to: DMSO).
`CC(=O)N1c2ccc(-c3ccc(CNC(=O)c4cn5cc(-c6cnc(N)nc6)nc(N6CCOCC6)c5n4)cc3)cc2CC[C@@H]1C` gave a remaining activity of 105% (ATM; enzyme activity, inhibitor, radiometric; 0.1 µM).
`COC(=O)c1cc2cc3c(cc2oc1=O)N(CC(=O)NC(Cc1cccc(Cl)c1)C(=O)NCC=CS(=O)(=O)c1ccccc1)CCC3` (stereo not shown) gave a remaining activity of 40% (rhodesain; enzyme activity, inhibitor, fluorescence; 5 µM).
`O=C(CN(Cc1ccccc1)Cc1cccc(C(=O)O)c1)NO` gave a remaining activity of 96 ± 8% (Astl; enzyme activity, inhibitor, fluorogenic; 0.25 µM).
With `C=CC(=O)Nc1cccc(Cn2ncc3cnc(Nc4cnn(CCOC)c4)nc32)c1` the binding was 100% (human MRCKA; KINOMEscan; 100 nM; relative to: control).
The remaining activity of `O=C(CN(Cc1cccc(C(=O)O)c1)Cc1cccc(C(=O)O)c1)NO` is reported as 109 ± 4% (Astl; enzyme activity, inhibitor, fluorogenic; 0.25 µM).
For `COc1ccccc1-c1ccncc1C(=O)Nc1nnc(OCc2ccc(Cl)cc2)s1`, the remaining activity was 107% (Bifunctional 3'-5' exonuclease/ATP-dependent helicase WRN, residues 500-946 (WRN, Homo sapiens, UniProt Q14191); ATPase activity, ADP-Glo; 0.48 µM; relative to: 0 µM cpd).
With `N#Cc1ccc(CN(CCC(=O)NO)Cc2ccc(C#N)cc2)cc1` the remaining activity was 21 ± 2% (Astl; enzyme activity, inhibitor, fluorogenic; 5 µM).
`Cc1nn(-c2cccc(N)c2)c(=O)c2cnc(Nc3ccc(N4CCNCC4)cc3)nc12` gave an IC50 of > 10 µM (EPHA8 (Homo sapiens, UniProt P29322); kinase activity, inhibitor, SelectScreen kinase profiling).

Repeated from above:
`COC(=O)[C@@]1(C(C)C)C=C(C(=O)Nc2cccc(C(=O)Nc3ccc(Nc4nccc(-c5cccnc5)n4)c(C)c3)c2)C(=O)CC1` has a remaining activity of 1.01 (MAPK8 (Homo sapiens, UniProt P45983); kinase activity, inhibitor; 0.002258 µM, unit not given, together with: 10 mM glutathione; relative to: no inhibitor).
